Results of several laboratories.
Parts stem from different laboratories: compare values within a part only.

Series 1
Target: Interferon regulatory factor 5, full length, phosphomimetic (IRF5, Homo sapiens, UniProt Q13568-2, residues 1-514, K96S/S451D/S453D/S456D/S462D)
Method: protein-binding microarray
Form: double-stranded DNA, one strand shown
Medium: in vitro
Concentration: 250 nM
Setting: 60-bp whole probe
Added: salmon DNA 0.4 mg/ml
Baseline: random background probes
Direction: higher = stronger binding
Shared flanks, not repeated: GCCTAGCAC … GTCTTGATTCGCTTGACGCTGCTG
`GACGAACTGTGGACTGGAGACGTGCTA` gave a log fluorescence of -0.501 z-score.
For `GACGGTATCGACTATCAGGACGTGCTA`, the log fluorescence was 3 z-score.
`GAAGGTCACAAAGACTTCATGTGCTAG` has a log fluorescence of -0.372 z-score.
`TCATTTCTTTGCTTCACACTGTGCTAG` gave a log fluorescence of 1.28 z-score.
With `TTAGATTTAAGACTGGATTAGTGCTAG` the log fluorescence was -0.0694 z-score.
With `GTCGGTATCGGACTGGGGACGTGCTAG` the log fluorescence was 1.37 z-score.
With `GACGGACTGGCGTTTCGGGACGTGCTA` the log fluorescence was 0.504 z-score.
`TTAGATCTCAGTCTCGTTTAGTGCTAG` has a log fluorescence of 0.708 z-score.

Series 2
Target: Replicase polyprotein 1ab, nsp13 helicase (rep, Severe acute respiratory syndrome coronavirus 2, UniProt P0DTD1)
Action: inhibitor
Concentration: 20 µM
`COC[C@H]1OC(=O)c2coc3c2[C@@]1(C)C1=C(C3=O)[C@@H]2CCC(=O)[C@@]2(C)C[C@H]1OC(C)=O` has an inhibition of 7.69%.
With `CC(=O)Nc1ccc(C(=O)O)cc1` the inhibition was 0.97%.
`Cc1cc(Nc2cc(C)c(C#N)c(N[C@@H](C)CCCC(C)(C)O)n2)n[nH]1` has an inhibition of -3.34%.
`C[C@@H](C1=C(CCN(C)C)Cc2ccccc21)c1ccccn1` has an inhibition of 2.1%.
`CCCC(=O)N1CCCN(c2nc(N)c3cc(OC)c(OC)cc3n2)CC1` has an inhibition of 5.4%.
`CCCCCCCCCCCC[N+](C)(C)CCOc1ccccc1` gave an inhibition of 8.41%.
The inhibition of `C#C[C@]1(O)CC[C@H]2[C@@H]3CCC4=C(CCC(=O)C4)[C@H]3CC[C@@]21C` is reported as 2.4%.
For `O=C(Nc1cccc(Nc2ncc(Br)c(NCCc3cnc[nH]3)n2)c1)N1CCCC1`, the inhibition was 7.54%.
`CC(C)OC(=O)N1CCC(Oc2ncnc3c2cnn3-c2ccc(S(C)(=O)=O)cc2F)CC1` gave an inhibition of 2.7%.
For `CCCCCCNC(=O)Nc1ccc(S(=O)(=O)Nc2ccc(CCNC[C@H](O)COc3ccc(O)cc3)cc2)cc1`, the inhibition was 17.5%.
With `O=C(Nc1ccccc1F)N[C@H]1N=C(c2ccccc2)c2ccccc2NC1=O` the inhibition was 6.96%.
`Cc1cc(=O)n(-c2ccccc2)[nH]1` has an inhibition of 12.2%.
With `Cc1cc(C(C)(C)CC(C)(C)C)ccc1OCCOCC[N+](C)(C)Cc1ccccc1` the inhibition was 0.6%.
For `C[C@@H](O)[C@H]1C(=O)N2C(C(=O)[O-])=C(SC3Cn4cnc[n+]4C3)[C@H](C)[C@H]12` (stereo partly drawn), the inhibition was -4.8%.
The inhibition of `N[C@@H](CSCCCO)C(=O)O` is reported as 9.45%.
The inhibition of `Cc1cccc(C)c1NC(=O)C(C)N` (stereo not drawn) is reported as 5.64%.
`C[N+](C)(C)NCCC(=O)[O-]` has an inhibition of 7.36%.
The inhibition of `Cl[C@H]1[C@H](Cl)[C@@H](Cl)[C@@H](Cl)[C@H](Cl)[C@H]1Cl` is reported as 2.25%.
`COc1cc2c(cc1OC)[C@@H](Cc1cc(OC)c(OC)c(OC)c1)[N+](C)(CCCOC(=O)CC/C=C/CCC(=O)OCCC[N+]1(C)CCc3cc(OC)c(OC)cc3[C@H]1Cc1cc(OC)c(OC)c(OC)c1)CC2` (stereo partly drawn) gave an inhibition of 4.91%.
With `Cc1ccccc1-c1cc(N2CCN(C)CC2)ncc1N(C)C(=O)C(C)(C)c1cc(C(F)(F)F)cc(C(F)(F)F)c1` the inhibition was 7.71%.
The inhibition of `CC(=O)Oc1cc(C(C)C)c(OCCN(C)C)cc1C` is reported as -1.23%.
For `COC(c1ccccc1)(c1ccccc1)[C@H](Oc1nc(C)cc(C)n1)C(=O)O`, the inhibition was 4.11%.
The inhibition of `Cc1ccc(S(=O)(=O)/C=C/C#N)cc1` is reported as 99.2%.
`CC(CNS(=O)(=O)C(C)C)c1ccc(-c2ccc(C#N)cc2)cc1` (stereo not drawn) has an inhibition of 9.62%.

Series 3
Target: Histone acetyltransferase KAT6A, winged helix 1, GST fusion (KAT6A, Homo sapiens, UniProt Q92794, residues 1-85)
Method: protein binding microarray
Form: double-stranded DNA, one strand shown
Medium: in vitro
Concentration: not given
Setting: 8-mer, flanks averaged, mean of 2 arrays, mostly near background
Baseline: not given
Direction: higher = stronger binding
Residues (chain): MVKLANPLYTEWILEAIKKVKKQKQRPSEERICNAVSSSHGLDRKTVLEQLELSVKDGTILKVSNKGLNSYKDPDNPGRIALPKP
`CATCCCGG` has an E-score of 0.29.
`CCCTACTC` gave an E-score of -0.0454.
The E-score of `CGTGCTTC` is reported as -0.0122.
The E-score of `AGCGACAG` is reported as 0.137.
The E-score of `AATCGATT` is reported as -0.0177.
`ACCCACGG` gave an E-score of 0.148.
The E-score of `AATTCTCG` is reported as -0.202.
`CGTTTAGC` has an E-score of 0.28.

Series 4
Target: Sal-like protein 4, full length isoform B (SALL4, Homo sapiens, UniProt Q9UJQ4-2, residues 1-616)
Method: universal PBM
Form: double-stranded DNA, one strand shown
Medium: in vitro
Concentration: not given
Setting: 8-mer, flanks averaged, mean of replicates
Direction: higher = stronger binding
Residues (chain): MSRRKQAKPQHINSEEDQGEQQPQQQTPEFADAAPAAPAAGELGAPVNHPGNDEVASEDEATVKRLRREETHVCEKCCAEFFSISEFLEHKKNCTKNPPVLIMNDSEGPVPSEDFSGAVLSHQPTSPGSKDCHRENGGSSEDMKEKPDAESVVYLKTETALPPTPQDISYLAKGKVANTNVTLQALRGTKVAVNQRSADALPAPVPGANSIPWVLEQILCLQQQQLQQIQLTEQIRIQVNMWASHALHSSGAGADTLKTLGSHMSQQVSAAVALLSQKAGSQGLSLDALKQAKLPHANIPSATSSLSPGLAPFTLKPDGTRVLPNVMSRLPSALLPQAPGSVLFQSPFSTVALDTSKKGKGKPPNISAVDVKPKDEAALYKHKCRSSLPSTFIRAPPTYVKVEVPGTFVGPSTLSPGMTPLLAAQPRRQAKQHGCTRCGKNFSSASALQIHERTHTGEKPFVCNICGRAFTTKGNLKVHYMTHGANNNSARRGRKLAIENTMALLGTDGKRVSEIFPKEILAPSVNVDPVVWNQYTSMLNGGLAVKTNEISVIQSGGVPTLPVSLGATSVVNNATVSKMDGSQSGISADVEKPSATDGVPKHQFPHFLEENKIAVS
With `CGGGTCCA` the E-score was -0.313.
For `CCAAGTCG`, the E-score was -0.183.
The E-score of `AGTACTGC` is reported as -0.0214.
`AGCTCTAC` gave an E-score of -0.168.
The E-score of `GCTTGACA` is reported as -0.0832.

Mixed results
Concentration: 10 µM
`NC(=O)C(c1ccccc1)(c1ccccc1)[C@@H]1CCN(CCc2ccc3c(c2)CCO3)C1` has a pseudovirus infection of 34.7% (HEK-293T; VSV pseudotyped with SARS-CoV-2 spike; 16 h).
`CC[C@H](CO)Nc1nc(NCc2ccc(-c3ccccn3)cc2)c2ncn(C(C)C)c2n1` gave an inhibition of 4% (Replicase polyprotein 1ab, 3C-like proteinase (rep, Middle East respiratory syndrome-related coronavirus, UniProt K9N7C7); enzyme activity, inhibitor).
With `Cc1ccc(Cl)c(Nc2ccccc2C(=O)O)c1Cl` the GFP-positive cells was 126% (HEK-293T; pseudovirus infection, FDA-approved drug library screen; VSV pseudotyped with SARS-CoV-2 spike; 16 h; baseline: vehicle-treated).

A few entries again (series 2):
`C[N+](C)(C)NCCC(=O)[O-]` has an inhibition of 7.36%.
The inhibition of `Cl[C@H]1[C@H](Cl)[C@@H](Cl)[C@@H](Cl)[C@H](Cl)[C@H]1Cl` is reported as 2.25%.
`COc1cc2c(cc1OC)[C@@H](Cc1cc(OC)c(OC)c(OC)c1)[N+](C)(CCCOC(=O)CC/C=C/CCC(=O)OCCC[N+]1(C)CCc3cc(OC)c(OC)cc3[C@H]1Cc1cc(OC)c(OC)c(OC)c1)CC2` (stereo partly drawn) gave an inhibition of 4.91%.
